Measurements of several laboratories.
Every numbered part comes from another study and shows a few of its results, in no order. Positions count from the first letter of the parent shown.

Study 1 — target: CCND3, cyclin fold, Cln2 fusion (human); technique: yeast growth competition, sequencing; matrix: yeast; setting: weak parent motif; reference: not given; direction: higher = stronger binding
Starting sequence: RB1 docking peptide (human); PKPLKKLRFDIEG
| Change | normalised enrichment score |
| --- | --- |
| PKPLKKQRFDIEG [L7Q] | 0.0415 |
| PKPLYKLRFDIEG [K5Y] | 0.085 |
| PKHLKKLRFDIEG [P3H] | 0.00234 |
| PKPLKKLRFDIEL [G13L] | 0.134 |
| PKPLKKDRFDIEG [L7D] | 0.0143 |
| PKPLKKLRFDIEC [G13C] | 0.147 |
| PKPLKKLHFDIEG [R8H] | 0.119 |
| PKPLKKSRFDIEG [L7S] | 0.174 |
| PKPLKKLRFDIFG [E12F] | 0.097 |
| PKPLKKLAFDIEG [R8A] | 0.0797 |
| PKGLKKLRFDIEG [P3G] | 0.114 |
| KKPLKKLRFDIEG [P1K] | 0.0784 |
| SKPLKKLRFDIEG [P1S] | 0.0594 |
| PKPLKKLRFFIEG [D10F] | 0.14 |
| PKPLKKLRFDIWG [E12W] | 0.111 |
| PKPLKKLRFMIEG [D10M] | 0.257 |
| PKPLKKLRFDEEG [I11E] | 0.163 |
| PKPLKLLRFDIEG [K6L] | 0.0855 |
| PKYLKKLRFDIEG [P3Y] | 0.0883 |
| PKPLKKTRFDIEG [L7T] | 0.108 |
| PKPDKKLRFDIEG [L4D] | 0.278 |
| PKPLKKLTFDIEG [R8T] | 0.202 |
| PVPLKKLRFDIEG [K2V] | 0.179 |
| PKPLKQLRFDIEG [K6Q] | 0.0335 |
| PKPLKKLRRDIEG [F9R] | 0.0295 |

Study 2 — technique: DHFR PCA, deep sequencing; matrix: yeast; added: (+)-ABA 200 µM; reference: wild-type fitted maximum; direction: higher = stronger binding
Target: ABI1, truncated, D143A, DHFR fusion (Arabidopsis thaliana)
Setting: methotrexate growth selection, single substitutions
Starting sequence: PYL1, truncated, DHFR fusion (Arabidopsis thaliana); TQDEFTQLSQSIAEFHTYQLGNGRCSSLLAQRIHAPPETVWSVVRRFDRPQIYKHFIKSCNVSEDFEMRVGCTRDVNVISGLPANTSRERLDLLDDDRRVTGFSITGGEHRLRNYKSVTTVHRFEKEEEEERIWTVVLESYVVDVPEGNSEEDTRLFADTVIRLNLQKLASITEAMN; partner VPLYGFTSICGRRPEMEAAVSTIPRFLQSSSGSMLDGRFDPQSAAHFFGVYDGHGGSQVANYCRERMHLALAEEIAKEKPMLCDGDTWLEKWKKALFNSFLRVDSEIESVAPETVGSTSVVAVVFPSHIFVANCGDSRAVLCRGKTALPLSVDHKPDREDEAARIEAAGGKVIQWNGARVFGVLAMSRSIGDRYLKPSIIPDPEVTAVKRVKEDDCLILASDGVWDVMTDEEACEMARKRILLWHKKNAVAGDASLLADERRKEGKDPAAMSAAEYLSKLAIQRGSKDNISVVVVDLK
| Change | relative binding score [%] |
| --- | --- |
| F66S | 95.7 |
| H34C | 101 |
| R98K | 120 |
| S63T | 101 |
| D159M | 27.7 |
| T86G | 101 |
| K126I | 98.5 |
| P146I | 25.6 |
| D97N | 107 |
| C60L | 69.3 |
| E147N | 89.4 |
| I172C | 86.5 |
| E14G | 71.1 |
| N85K | 106 |
| V137F | -8.45 |
| R69M | 99.3 |
| L138C | 76 |
| T173V | 99.3 |
| S11M | 92.9 |
| W41G | -12.4 |
| N114A | 78.8 |
| I162R | -2.13 |
| R155D | -6.05 |
| S171A | 102 |
| Y115I | -1.12 |

Study 3 — target: CEBPA, bZIP domain (human); technique: DHFR protein complementation; matrix: yeast; reference: wild-type JUN-FOS pair; direction: higher = stronger binding
Setting: single substitutions, most at no-binding floor
Starting sequence: JUN, bZIP domain (human); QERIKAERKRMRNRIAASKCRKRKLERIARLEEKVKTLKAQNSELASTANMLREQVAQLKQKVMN; partner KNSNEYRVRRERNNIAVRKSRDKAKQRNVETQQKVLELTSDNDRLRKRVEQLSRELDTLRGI
| Change | binding fitness [natural log] |
| --- | --- |
| A57W | -1.51 |
| A29E | -1.25 |
| E33G | -1.51 |
| A40E | -1.34 |
| S47K | -1.39 |
| K39A | -1.38 |
| I28T | -1.35 |
| Q55M | -1.38 |
| S47E | -1.37 |
| Q41S | -1.5 |
| Q41W | -1.39 |
| S47V | -1.37 |
| R53S | -1.33 |
| L45V | -1.5 |
| R30F | -1.52 |
| K36W | -1.48 |
| E44K | -1.14 |
| K36V | -1.5 |
| L31I | -1.41 |
| N42L | -1.48 |
| V35C | -1.44 |
| A40Y | -1.37 |
| A57T | -1.51 |
| Q55A | -1.48 |
| L45K | -1.57 |

Study 4 — technique: RNAcompete; form: RNA; matrix: in vitro; concentration: 20 nM; setting: 7-mer, probes averaged, single round; reference: mean of 7-mers; direction: higher = stronger binding
Target: PABPC1L2, full length, GST fusion (mouse, UniProt A0ABA7IW68)
Construct (chain): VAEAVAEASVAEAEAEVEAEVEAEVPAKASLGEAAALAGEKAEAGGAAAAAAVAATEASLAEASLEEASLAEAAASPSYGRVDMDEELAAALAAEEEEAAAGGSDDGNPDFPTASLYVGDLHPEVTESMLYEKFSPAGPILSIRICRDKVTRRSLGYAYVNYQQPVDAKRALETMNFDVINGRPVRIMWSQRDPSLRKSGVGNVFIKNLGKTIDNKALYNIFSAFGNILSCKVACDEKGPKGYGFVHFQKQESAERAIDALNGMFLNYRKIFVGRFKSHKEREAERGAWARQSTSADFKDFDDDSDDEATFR
| Sequence | 7-mer Z-score |
| --- | --- |
| UAGCGAG | 0.1 |
| GAGGCCA | 0.109 |
| GCUCCCA | -0.224 |
| CUUCAAG | -0.229 |
| ACUUGCA | -0.0409 |
| CUCCAAU | -0.193 |
| CGCCGGC | -0.51 |
| UACUAUA | -0.0899 |
| GGUACCU | -0.336 |
| GUCUUGG | -0.193 |
| CGCUGAA | -0.186 |
| CAGUGUG | -0.0283 |
| CAACACU | -0.0772 |
| GUAGAGC | -0.121 |
| AGCUUCG | -0.222 |
| CCAUGUG | -0.219 |
| UCCCUUC | -0.354 |
| UGAAGUC | -0.199 |
| UCCUUCA | -0.248 |
| UGUUGAU | -0.188 |
| UUGUGAA | 0.0352 |
| CAUAAGC | -0.0808 |
| UUACCUG | -0.193 |
| UAAAGUA | 0.939 |
| GACGCUU | -0.298 |

Study 5 — technique: protein-binding microarray; form: double-stranded DNA, one strand shown; matrix: in vitro; concentration: 2540 nM top; setting: 60-bp whole probe; added: salmon DNA 0.4 mg/ml; reference: random background probes; direction: higher = stronger binding; all sequences stand within: GCCTAGCAC … GTCTTGATTCGCTTGACGCTGCTG
Target: Interferon regulatory factor 3, full length, phosphomimetic (IRF3, Homo sapiens, UniProt Q14653, residues 1-427, S386D/S396D/S398D/S402D/T404D/S405D)
Target sequence (chain): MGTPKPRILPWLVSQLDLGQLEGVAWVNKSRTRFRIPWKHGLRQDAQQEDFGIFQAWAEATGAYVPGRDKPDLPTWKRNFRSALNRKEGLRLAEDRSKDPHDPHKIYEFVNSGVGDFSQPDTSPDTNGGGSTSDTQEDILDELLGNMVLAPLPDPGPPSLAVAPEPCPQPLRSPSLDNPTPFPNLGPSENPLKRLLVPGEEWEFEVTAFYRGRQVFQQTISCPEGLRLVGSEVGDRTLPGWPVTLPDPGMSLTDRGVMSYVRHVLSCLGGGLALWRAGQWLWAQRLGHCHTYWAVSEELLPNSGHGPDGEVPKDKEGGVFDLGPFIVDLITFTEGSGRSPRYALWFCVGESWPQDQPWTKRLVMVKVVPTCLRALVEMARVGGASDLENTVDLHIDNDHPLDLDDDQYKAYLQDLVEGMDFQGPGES
| Sequence | fitted relative affinity |
| --- | --- |
| TTAGGACCGGGGTATCGGTTAGTGCTA | 0.224 z-score |
| TTAGGTCTCGGACTGTGTTAGTGCTAG | -0.298 z-score |
| CCCACTTTCACTTCTCCCTTGTGCTAG | 5.09 z-score |
| TTAGGGCTGCTTATCCTTTAGTGCTAG | -0.514 z-score |
| TTAGGTTTCCTTTCCCATTAGTGCTAG | 11 z-score |
| TGTTACTAGGGTTACATAATGTGCTAG | 0.238 z-score |
| TTAGGTCTCCTACTGTTTTAGTGCTAG | 0.716 z-score |
| GACGGTTTCGGTCTCGGTACGTGCTAG | 8.67 z-score |
| TTAGATATCGGGACGGGATTAGTGCTA | -0.124 z-score |
| TTAGGATTCCTTTTCCTTTAGTGCTAG | 6.93 z-score |
| TCATTCCTCTTTCTTTGACTGTGCTAG | 2.63 z-score |
| GACGATCTCAGTCACGAGACGTGCTAG | 0.404 z-score |
| TTAGGTTACCTTATCCTTTAGTGCTAG | 4.4 z-score |
| TTTGCTTTCCTTTATGTACTGTGCTAG | 5.44 z-score |
| GACGATTTCAGTTCCGTGACGTGCTAG | 2.81 z-score |
| TTAAGTATCGGGTTTCGGTTAGTGCTA | 4.25 z-score |
| GAGGGTATCCTTATCCTGACGTGCTAG | 3.65 z-score |
| CTCTAACTCAAGATTCCTCTCGTGCTA | -0.0321 z-score |
| TTAGGTATCGGGTGTCGGTTAGTGCTA | 1.04 z-score |
| TTATATACCTGTATATCTTCGTGCTAG | 0.351 z-score |
| GGCGGTTTCGACTATCGGGACGTGCTA | 2.82 z-score |
| GACGATCTCAGACTGGGGACGTGCTAG | 0.109 z-score |

A few entries again (study 5):
| Sequence | fitted relative affinity |
| --- | --- |
| TTAGGTTACCTTATCCTTTAGTGCTAG | 4.4 z-score |
| TTTGCTTTCCTTTATGTACTGTGCTAG | 5.44 z-score |
| GACGATTTCAGTTCCGTGACGTGCTAG | 2.81 z-score |
| TTAAGTATCGGGTTTCGGTTAGTGCTA | 4.25 z-score |
| GAGGGTATCCTTATCCTGACGTGCTAG | 3.65 z-score |
| CTCTAACTCAAGATTCCTCTCGTGCTA | -0.0321 z-score |
